{"data": "Results from different studies", "note": "Protocols differ between the studies behind these lines. Values joined by “and” are separate records of one study, mostly repeats; a detail may differ. ± gives the spread as reported."}
{"SMILES": "O=C(CN1CCOCC1)Nc1ccc(C2CCCCC2)cc1", "assay": "liver microsome stability", "system": "dog liver microsomes", "setting": "1 µM", "measurement": "hepatic clearance", "value": "26 mL/min/kg"}
{"SMILES": "Nc1ncc(-c2cc(-c3cnn(CC(F)(F)F)c3)ncc2F)nc1C(=O)NC1CNCC(F)C1 (centres unmarked)", "tested on": "DCAMKL1", "assay": "KINOMEscan", "setting": "1 µM", "how to read": "baseline: DMSO control", "measurement": "remaining binding", "value": "76%"}
{"SMILES": "O=c1c(Oc2ccccc2)c(C(F)(F)F)oc2c(O)c(O)ccc12", "tested on": "ROC1-CUL1 E3 subcomplex", "assay": "Cdc34-ubiquitin discharge", "setting": "1 µM", "how to read": "baseline: input", "measurement": "Cdc34b-ubiquitin remaining", "value": "1.9%"}
{"SMILES": "CC[n+]1cccc2cc(/C=N/NC(=O)c3cccc(C(=O)N/N=C/c4ccc5c(ccc[n+]5CC)c4)c3)ccc21", "tested on": "22CTA telomeric G4-DNA antiparallel", "assay": "FRET melting", "setting": "1 µM, K10 buffer, DNA 0.2 µM, added: ds26 10 µM", "measurement": "ΔTm", "value": "5.8 ± 0.3 °C"}
{"SMILES": "C=CC(=O)N1[C@@H](c2ccc3c(c2)OCO3)c2[nH]c3ccccc3c2C[C@H]1C(=O)N1CCN(C)CC1", "tested on": "human cyclin E1 N112C-3xFLAG:CDK2", "assay": "co-IP with TMT proteomics, measured: KPNA2", "setting": "concentration not given, P52292", "how to read": "baseline: wild type DMSO", "measurement": "relative co-enrichment", "value": "107%"}
{"SMILES": "Cn1ccc2cc(-n3c(=O)[nH]c4sc5c(c4c3=O)CCCC5)ccc21", "tested on": "rat kainate receptor", "assay": "radioligand binding", "setting": "10 µM", "measurement": "inhibition", "value": "4%"}
{"SMILES": "OC[C@H]1O[C@@H]2O[C@H]3[C@H](O)[C@@H](O)[C@@H](O[C@H]4[C@H](O)[C@@H](O)[C@@H](O[C@H]5[C@H](O)[C@@H](O)[C@@H](O[C@H]6[C@H](O)[C@@H](O)[C@@H](O[C@H]7[C@H](O)[C@@H](O)[C@@H](O[C@H]1[C@H](O)[C@H]2O)O[C@@H]7CO)O[C@@H]6CO)O[C@@H]5CO)O[C@@H]4CO)O[C@@H]3CO", "tested on": "LuxR", "assay": "Escherichia coli sensor", "setting": "200 µM", "how to read": "higher = stronger induction", "measurement": "bioluminescence induction", "value": "769 ± 127 RLU"}
{"SMILES": "C[n+]1cccc2cc(/C=N/NC(=O)c3ccc4ccc(C(=O)N/N=C/c5ccc6c(ccc[n+]6C)c5)nc4n3)ccc21", "tested on": "22CTA telomeric G4-DNA antiparallel", "assay": "FRET melting", "setting": "1 µM, K10 buffer, DNA 0.2 µM", "measurement": "ΔTm", "value": "15.7 ± 0.1 °C"}
{"SMILES": "CC(C)Oc1cc(Cl)ccc1CNc1cc(-c2ccccc2)nc2ncnn12", "tested on": "endogenous β-adrenergic receptors", "assay": "cAMP level, cAMP GloSensor", "system": "mock-transfected cells", "setting": "300 nM, added: isoprenaline 30 nM", "how to read": "higher = more cAMP", "measurement": "cAMP luminescence", "value": "23200 a.u. and 28800 a.u. and 26100 a.u."}
{"SMILES": "C=CC(=O)Nc1cccc(Cn2ncc3cnc(Nc4cnn(CCOC)c4)nc32)c1", "tested on": "SYK human", "assay": "binding, KINOMEscan", "setting": "100 nM", "how to read": "lower = stronger binding", "measurement": "percent of control", "value": "100%"}
{"SMILES": "CC[n+]1cccc2cc(/C=N/NC(=O)c3cccc(C(=O)N/N=C/c4ccc5c(ccc[n+]5CC)c4)n3)ccc21", "tested on": "22CTA telomeric G4-DNA antiparallel", "assay": "FRET melting", "setting": "1 µM, K10 buffer, DNA 0.2 µM, added: ds26 10 µM", "measurement": "ΔTm", "value": "13.1 ± 0.5 °C"}
{"SMILES": "Cc1ccc(-c2ccc([C@H]3[C@@H](F)[C@@H](F)C[C@@H](F)[C@H]3F)cc2)cn1", "assay": "liver microsome stability", "system": "dog liver microsomes", "setting": "1 µM", "measurement": "hepatic clearance", "value": "28 mL/min/kg"}
{"SMILES": "c1ccc(-c2n[nH]cc2-c2ccnc3ccccc23)nc1", "tested on": "KSP1 (Candida albicans)", "assay": "kinase binding, MIB/MS competition", "system": "Candida albicans lysate", "setting": "10 µM", "how to read": "baseline: DMSO", "measurement": "log2 fold change", "value": -0.14}
{"SMILES": "C[n+]1ccc(/C=N/NC(=O)c2cc(C(=O)N/N=C/c3cc[n+](C)cc3)ncn2)cc1", "tested on": "22CTA telomeric G4-DNA antiparallel", "assay": "FRET melting", "setting": "1 µM, K10 buffer, DNA 0.2 µM", "measurement": "ΔTm", "value": "2.1 ± 1.5 °C"}
